# Measurements pooled from the literature.
# Numbered parts are unrelated; each lists some results of a single study.
# Sequence of UniProt Q13153 (whole entry, looked up): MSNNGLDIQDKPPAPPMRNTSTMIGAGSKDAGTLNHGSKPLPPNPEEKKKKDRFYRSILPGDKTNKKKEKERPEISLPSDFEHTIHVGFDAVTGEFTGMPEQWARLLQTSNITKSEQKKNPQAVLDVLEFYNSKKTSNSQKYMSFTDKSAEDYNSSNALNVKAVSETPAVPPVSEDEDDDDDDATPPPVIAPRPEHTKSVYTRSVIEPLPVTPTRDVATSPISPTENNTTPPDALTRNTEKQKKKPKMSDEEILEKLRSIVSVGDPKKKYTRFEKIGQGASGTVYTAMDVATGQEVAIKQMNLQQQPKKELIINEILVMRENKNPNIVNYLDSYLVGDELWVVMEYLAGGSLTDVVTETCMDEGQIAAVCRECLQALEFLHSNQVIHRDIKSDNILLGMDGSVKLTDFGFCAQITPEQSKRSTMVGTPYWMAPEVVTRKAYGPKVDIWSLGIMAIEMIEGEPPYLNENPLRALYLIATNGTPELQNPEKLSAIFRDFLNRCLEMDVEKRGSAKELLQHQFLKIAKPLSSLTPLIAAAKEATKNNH
# Sequence of UniProt Q5VVX9 (whole entry, looked up): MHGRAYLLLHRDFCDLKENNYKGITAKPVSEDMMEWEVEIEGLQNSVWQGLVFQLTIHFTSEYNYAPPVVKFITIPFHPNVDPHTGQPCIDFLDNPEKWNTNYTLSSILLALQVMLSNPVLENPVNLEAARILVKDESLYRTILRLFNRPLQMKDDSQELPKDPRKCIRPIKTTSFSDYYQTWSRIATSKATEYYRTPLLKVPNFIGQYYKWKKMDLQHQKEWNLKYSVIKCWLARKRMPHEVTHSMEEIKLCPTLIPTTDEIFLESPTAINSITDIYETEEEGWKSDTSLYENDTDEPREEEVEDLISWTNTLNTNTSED
# Sequence of UniProt P21709 (whole entry, looked up): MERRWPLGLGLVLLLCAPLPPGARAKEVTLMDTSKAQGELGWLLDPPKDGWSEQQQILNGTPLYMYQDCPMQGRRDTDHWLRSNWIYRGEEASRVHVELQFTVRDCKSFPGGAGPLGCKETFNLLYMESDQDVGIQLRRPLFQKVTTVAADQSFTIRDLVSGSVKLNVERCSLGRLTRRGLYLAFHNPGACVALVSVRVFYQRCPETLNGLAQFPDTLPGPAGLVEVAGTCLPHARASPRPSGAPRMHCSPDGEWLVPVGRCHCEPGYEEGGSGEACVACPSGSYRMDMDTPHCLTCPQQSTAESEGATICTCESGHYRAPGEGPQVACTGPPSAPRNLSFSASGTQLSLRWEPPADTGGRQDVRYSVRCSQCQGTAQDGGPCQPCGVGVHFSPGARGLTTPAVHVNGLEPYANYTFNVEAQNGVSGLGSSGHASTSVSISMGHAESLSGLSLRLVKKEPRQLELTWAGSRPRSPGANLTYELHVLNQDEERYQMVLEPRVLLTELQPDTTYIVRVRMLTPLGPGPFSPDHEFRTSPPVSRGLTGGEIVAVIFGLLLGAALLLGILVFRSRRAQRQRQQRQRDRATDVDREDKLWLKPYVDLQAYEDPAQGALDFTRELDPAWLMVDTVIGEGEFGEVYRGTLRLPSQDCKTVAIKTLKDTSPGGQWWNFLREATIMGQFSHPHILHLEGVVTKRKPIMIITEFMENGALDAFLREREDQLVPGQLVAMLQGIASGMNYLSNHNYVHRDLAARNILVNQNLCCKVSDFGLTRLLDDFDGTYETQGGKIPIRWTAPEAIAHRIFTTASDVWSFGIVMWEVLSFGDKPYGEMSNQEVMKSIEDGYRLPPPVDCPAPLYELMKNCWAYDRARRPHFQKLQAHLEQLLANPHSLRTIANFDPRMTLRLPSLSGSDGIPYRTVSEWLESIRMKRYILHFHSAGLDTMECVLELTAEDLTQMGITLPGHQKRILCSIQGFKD
# Sequence of UniProt Q8N5S9 (whole entry, looked up): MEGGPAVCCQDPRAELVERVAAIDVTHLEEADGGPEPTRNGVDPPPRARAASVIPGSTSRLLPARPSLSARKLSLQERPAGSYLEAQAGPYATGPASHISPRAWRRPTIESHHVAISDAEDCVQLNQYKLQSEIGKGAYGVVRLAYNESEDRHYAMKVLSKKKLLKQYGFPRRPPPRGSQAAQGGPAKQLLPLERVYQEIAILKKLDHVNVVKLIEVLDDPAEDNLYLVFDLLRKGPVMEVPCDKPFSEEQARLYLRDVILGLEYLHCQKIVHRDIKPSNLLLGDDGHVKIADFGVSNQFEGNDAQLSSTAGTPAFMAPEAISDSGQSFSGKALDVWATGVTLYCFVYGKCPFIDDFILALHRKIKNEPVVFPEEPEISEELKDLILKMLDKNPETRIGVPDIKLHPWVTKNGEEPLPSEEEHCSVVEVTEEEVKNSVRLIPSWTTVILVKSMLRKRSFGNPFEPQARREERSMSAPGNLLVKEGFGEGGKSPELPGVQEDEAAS
# Sequence of UniProt P61088 (whole entry, looked up): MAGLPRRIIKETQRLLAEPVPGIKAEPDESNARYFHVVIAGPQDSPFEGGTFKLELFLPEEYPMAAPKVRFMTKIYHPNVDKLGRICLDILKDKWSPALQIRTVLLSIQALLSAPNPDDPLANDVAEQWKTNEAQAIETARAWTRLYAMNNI
# Sequence of UniProt P11309 (whole entry, looked up): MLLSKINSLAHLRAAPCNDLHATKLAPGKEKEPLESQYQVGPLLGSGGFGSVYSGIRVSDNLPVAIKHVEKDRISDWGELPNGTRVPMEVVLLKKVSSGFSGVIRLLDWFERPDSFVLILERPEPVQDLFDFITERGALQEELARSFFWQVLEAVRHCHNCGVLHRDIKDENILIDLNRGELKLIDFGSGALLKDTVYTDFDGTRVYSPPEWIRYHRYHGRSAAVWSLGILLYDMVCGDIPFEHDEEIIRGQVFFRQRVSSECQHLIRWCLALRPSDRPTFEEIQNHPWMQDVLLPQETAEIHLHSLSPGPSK
# Sequence of UniProt Q9Y2H1 (whole entry, looked up): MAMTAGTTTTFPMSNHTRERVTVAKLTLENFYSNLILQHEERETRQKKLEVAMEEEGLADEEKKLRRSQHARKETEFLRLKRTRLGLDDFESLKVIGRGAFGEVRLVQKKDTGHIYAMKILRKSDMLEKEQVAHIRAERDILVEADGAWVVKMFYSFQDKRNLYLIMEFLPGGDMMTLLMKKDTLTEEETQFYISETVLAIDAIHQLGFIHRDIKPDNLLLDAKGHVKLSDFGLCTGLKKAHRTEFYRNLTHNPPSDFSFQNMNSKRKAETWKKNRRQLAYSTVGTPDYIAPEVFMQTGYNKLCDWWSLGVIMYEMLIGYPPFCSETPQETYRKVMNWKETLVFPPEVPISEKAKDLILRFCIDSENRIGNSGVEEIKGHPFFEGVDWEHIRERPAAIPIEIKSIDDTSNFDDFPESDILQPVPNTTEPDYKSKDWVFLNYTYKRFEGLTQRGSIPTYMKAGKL
# Sequence of UniProt Q86Y07 (whole entry, looked up): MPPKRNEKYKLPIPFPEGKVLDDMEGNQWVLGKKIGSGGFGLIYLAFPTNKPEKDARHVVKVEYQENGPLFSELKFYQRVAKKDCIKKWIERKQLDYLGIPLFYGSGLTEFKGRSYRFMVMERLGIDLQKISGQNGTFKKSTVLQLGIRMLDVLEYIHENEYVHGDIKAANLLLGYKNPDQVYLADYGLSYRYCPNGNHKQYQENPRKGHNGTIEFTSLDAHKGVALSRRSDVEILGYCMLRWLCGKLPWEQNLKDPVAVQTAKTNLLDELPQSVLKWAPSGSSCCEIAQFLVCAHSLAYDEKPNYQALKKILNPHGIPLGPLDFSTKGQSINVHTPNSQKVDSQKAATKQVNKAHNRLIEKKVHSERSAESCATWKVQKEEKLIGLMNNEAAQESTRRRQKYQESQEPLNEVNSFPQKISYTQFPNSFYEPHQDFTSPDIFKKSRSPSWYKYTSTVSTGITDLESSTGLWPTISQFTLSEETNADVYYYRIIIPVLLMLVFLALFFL
# Sequence of UniProt O14933 (whole entry, looked up): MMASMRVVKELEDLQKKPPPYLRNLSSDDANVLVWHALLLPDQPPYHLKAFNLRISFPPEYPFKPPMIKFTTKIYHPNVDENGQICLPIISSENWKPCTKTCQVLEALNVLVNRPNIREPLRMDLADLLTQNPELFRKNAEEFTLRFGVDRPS

# Block 1
# Compound: O=C1NC(c2ccccn2)Sc2ccccc21 (stereo not drawn)
# Method: competition with immobilised ligand
# Concentration: 1 µM
target,read-out,remaining binding
"Ephrin type-B receptor 2 (EPHB2, Homo sapiens, UniProt P29323)",cell-free assay,71%
"Ephrin type-A receptor 1 (EPHA1, Homo sapiens, UniProt P21709)",cell-free assay,100%
"Cyclin-dependent kinase 11A (CDK11A, Homo sapiens, UniProt Q9UQ88)",binding,100%
"Serine/threonine-protein kinase VRK2 (VRK2, Homo sapiens, UniProt Q86Y07)",cell-free assay,77%
"Tyrosine-protein kinase Blk (BLK, Homo sapiens, UniProt P51451)",cell-free assay,77%
"Serine/threonine-protein kinase 38-like (STK38L, Homo sapiens, UniProt Q9Y2H1)",cell-free assay,58%

# Block 2
# Molecule: B1 (UBE4B RING domain)
# Method: yeast two-hybrid
# Medium: yeast
# Notes: mostly zero background
# Baseline: not given
# Reading: higher = stronger interaction
# B1: UBE4B RING domain (UniProt O95155); chain KNARAEIDYSDAPDEFRDPLMDTLMTDPVRLPSGTIMDRSIILRHLLNSPTDPFNRQTLTESMLEPVPELKEQIQAWMREKQNSDH
target,lacZ reporter activity
UBE2V2 UBC core domain (UniProt Q15819),0
UBE2E1 UBC core domain (UniProt P51965),0
UBE2N UBC core domain (UniProt P61088),0
UBE2U UBC core domain (UniProt Q5VVX9),0
CDC34 UBC core domain (UniProt P49427),0
UBE2L6 UBC core domain (UniProt O14933),0

# Block 3
# SMILES: O=C(Nc1ccc(Cl)cc1)c1ccccc1NCc1ccncc1
# Read-out: enzyme activity
# Mode: inhibitor
# Concentration: 0.5 µM
# Baseline: control
target,remaining activity [%]
"Cyclin-dependent kinase 2, with cyclin E (CDK2, Homo sapiens, UniProt P24941)",94.3
"Calcium/calmodulin-dependent protein kinase type 1 (CAMK1, Homo sapiens, UniProt Q14012)",103
"Serine/threonine-protein kinase pim-1 (PIM1, Homo sapiens, UniProt P11309)",98.9
"Ephrin type-A receptor 2 (EPHA2, Homo sapiens, UniProt P29317)",101
"Calcium/calmodulin-dependent protein kinase kinase 1 (CAMKK1, Homo sapiens, UniProt Q8N5S9)",98.5
"Tyrosine-protein kinase receptor TYRO3 (TYRO3, Homo sapiens, UniProt Q06418)",105
"Mitogen-activated protein kinase kinase kinase 20 (MAP3K20, Homo sapiens, UniProt Q9NYL2)",86
"Protein kinase C zeta type (PRKCZ, Homo sapiens, UniProt Q05513)",100
"SRSF protein kinase 1 (SRPK1, Homo sapiens, UniProt Q96SB4)",109
"Dual specificity tyrosine-phosphorylation-regulated kinase 1A (DYRK1A, Homo sapiens, UniProt Q13627)",97.1
"Protein kinase C theta type (PRKCQ, Homo sapiens, UniProt Q04759)",110
"Serine/threonine-protein kinase PAK 1 (PAK1, Homo sapiens, UniProt Q13153)",94.9
"Tyrosine-protein kinase Yes (YES1, Homo sapiens, UniProt P07947)",95.3

# Block 4
# Target: Sal-like protein 4, full length isoform A (SALL4, Homo sapiens, UniProt Q9UJQ4, residues 1-1053)
# Sequence of UniProt Q9UJQ4 (whole entry, looked up): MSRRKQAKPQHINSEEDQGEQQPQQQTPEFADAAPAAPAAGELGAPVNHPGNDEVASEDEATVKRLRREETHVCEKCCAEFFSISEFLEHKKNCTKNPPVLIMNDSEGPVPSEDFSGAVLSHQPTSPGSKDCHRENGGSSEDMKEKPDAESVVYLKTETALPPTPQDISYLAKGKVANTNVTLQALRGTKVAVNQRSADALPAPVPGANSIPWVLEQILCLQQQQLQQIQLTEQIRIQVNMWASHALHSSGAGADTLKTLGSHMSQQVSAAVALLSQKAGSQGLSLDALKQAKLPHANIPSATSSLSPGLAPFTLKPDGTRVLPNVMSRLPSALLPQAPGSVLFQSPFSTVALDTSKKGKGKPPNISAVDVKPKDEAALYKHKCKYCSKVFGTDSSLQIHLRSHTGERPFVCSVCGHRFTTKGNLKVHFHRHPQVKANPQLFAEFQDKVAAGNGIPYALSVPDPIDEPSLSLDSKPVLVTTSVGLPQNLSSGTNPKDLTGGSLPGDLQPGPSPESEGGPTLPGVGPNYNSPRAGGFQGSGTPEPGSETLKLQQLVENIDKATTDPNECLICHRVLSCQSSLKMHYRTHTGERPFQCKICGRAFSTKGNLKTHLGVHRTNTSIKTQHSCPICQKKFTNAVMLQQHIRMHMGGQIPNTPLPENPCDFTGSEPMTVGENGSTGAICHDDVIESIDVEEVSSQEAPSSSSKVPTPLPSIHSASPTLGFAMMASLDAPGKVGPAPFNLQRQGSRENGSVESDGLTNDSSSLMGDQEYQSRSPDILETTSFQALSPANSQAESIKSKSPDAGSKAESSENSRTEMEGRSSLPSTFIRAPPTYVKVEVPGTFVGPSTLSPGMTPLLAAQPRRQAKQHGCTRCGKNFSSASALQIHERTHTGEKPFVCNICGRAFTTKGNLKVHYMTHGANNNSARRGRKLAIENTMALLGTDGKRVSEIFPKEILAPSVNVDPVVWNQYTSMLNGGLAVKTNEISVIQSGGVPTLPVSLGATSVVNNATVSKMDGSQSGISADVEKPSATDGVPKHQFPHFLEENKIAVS
# Method: universal PBM
# Form: double-stranded DNA, one strand shown
# Medium: in vitro
# Concentration: 600 nM
# Notes: 8-mer, flanks averaged, mean of replicates
# Reading: higher = stronger binding
Sequence,E-score
TACAGAAA,0.237
AGCACAAC,-0.000295
CATGGACA,-0.0836
ATCGACAG,0.0479
CCCTCGAA,-0.151
GAAGATGC,-0.132
ATAATCAC,0.271
CAAACCCG,-0.215

# A few entries again (block 2):
target,lacZ reporter activity
UBE2U UBC core domain (UniProt Q5VVX9),0
UBE2E1 UBC core domain (UniProt P51965),0
UBE2L6 UBC core domain (UniProt O14933),0
UBE2V2 UBC core domain (UniProt Q15819),0
CDC34 UBC core domain (UniProt P49427),0
